Published values of several laboratories.
Numbered parts are unrelated; each lists some results of a single study. Positions count from the first letter of the parent shown.

Sample 1
Target: CCNB1, cyclin fold, Cln2 fusion (human)
Technique: yeast growth competition, sequencing
Sample: yeast
Notes: strong parent motif
Reference: not given
Reading: higher = stronger binding
Parent: PKN2 docking peptide (human); VSAVQKLDFSDTM
Variant | normalised enrichment score
MSAVQKLDFSDTM [V1M] | 2.64
VSAVQLLDFSDTM [K6L] | 0.115
VSAVQVLDFSDTM [K6V] | 0.953
VSAVQTLDFSDTM [K6T] | 0.469

Sample 2
Target: Hepatocyte nuclear factor 3-alpha (Foxa1, Mus musculus, UniProt P35582, residues 1-468, full length assumed)
Technique: EMSA with sequencing
Form: double-stranded DNA, one strand shown
Sample: in vitro
Tested at: 10 and 20 nM
Notes: whole designed probe, mean of two concentrations, ends assumed
Reference: negative control set to 0
Reading: higher = stronger binding
Constant ends, left off below: GTGAGCGGTGCCCATTGATGGGGAAC … TTTCACTGGGATCGTGGGGAC
Residues (chain): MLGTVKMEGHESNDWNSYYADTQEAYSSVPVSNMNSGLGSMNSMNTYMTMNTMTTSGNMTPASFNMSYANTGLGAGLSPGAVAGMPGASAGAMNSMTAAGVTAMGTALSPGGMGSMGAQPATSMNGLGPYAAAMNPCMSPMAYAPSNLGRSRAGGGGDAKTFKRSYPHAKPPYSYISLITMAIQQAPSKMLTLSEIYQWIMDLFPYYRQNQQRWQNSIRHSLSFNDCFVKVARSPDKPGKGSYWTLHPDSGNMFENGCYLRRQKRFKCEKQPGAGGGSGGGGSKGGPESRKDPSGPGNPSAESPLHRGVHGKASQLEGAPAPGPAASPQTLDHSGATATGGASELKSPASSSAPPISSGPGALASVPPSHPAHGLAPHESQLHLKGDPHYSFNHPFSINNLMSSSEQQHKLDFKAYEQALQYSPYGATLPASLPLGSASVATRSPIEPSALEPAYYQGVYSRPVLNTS
Sequence | normalised bound fraction [ratio]
ATCTTCCCCCTCTTCCTTGCCCCACCAGCTCACCTACGGGGGTTATTTGCAGATAGGAAAATAAATAAAGCCGGCATTCGTTAACGCAGTTCTGGCGCAAACTGCTGTTTGCTCTGGATCTAACATGGTCCTTTGGCGAGGCGTGGCTCCGGGAGAGCAAAGCACCGTGTCAGGGCCATGATCCGGGCTCGCC | 0.342
CTGCAGCACTACAGCCCCTTTCTAGGACATCCCTGAAGGATGCAGTGAAGGGAAATCTTCCCAGTGGGCAGAACTTCCAGCAGTGCACCTGGTTGTGTACTTTGCATGGAAGGAGAAATAATCAAATGTGTGATTACATACTGATTCATGGGCTGCAGCCAATGGTTTGGCTGGATGGTCAGGGAGGTCATTC | 0.112
ATTATTTCATTATACAAATATAAATGTCATTCTTTGATTTTAGAAGAAATCATGATATGTCATTCTATTGAGTGCTAACTAAAAGTTCCCTTTGTTTACTTAGCTTTCTCTTAGTCATAAGAAAGAAGAAGATCTCTTGCGTGAAAACAGCATGTTGCGGGAAGAAATTGCCAAGCTAAGACTGGAACTAGAT | 0.541
ATCTTCCCCCTCTTCCTTGCCCCACCAGCTCACCTTCCCGGGTTATTTGCAGATAGGAAAATAAATAAAGCCGGCATTCGTTAACGCAGTTCTGGCGCAAACTGCTGTTTGCTCTGCATGAATCATGGTCCTTACGCGAGGCGTGGCTCCGGGAGAGCAAAGCACCGTGTCAGGCGCATGATCCGGGGTGGCC | 0.359
TGGCCCAGGGGTTGGGGACCCCTAATATATAATGATTCACATTATATATCAAAAGTAAATCAAAAAATTATAACTACAGCTAATTAAAAACTATGTAATCTTACAGATGAAAATAAGATATTATGCAGCACTATAATTAGCTGCTGTTAAGTGATGATGTTGTAGAGAGGTTTTAATACAAATAAAACTTGGA | 0.239

Sample 3
Target: Sal-like protein 4, full length isoform B (SALL4, Homo sapiens, UniProt Q9UJQ4-2, residues 1-616)
Technique: universal PBM
Form: double-stranded DNA, one strand shown
Sample: in vitro
Tested at: not given
Notes: 8-mer, flanks averaged, mean of replicates
Reading: higher = stronger binding
Construct (chain): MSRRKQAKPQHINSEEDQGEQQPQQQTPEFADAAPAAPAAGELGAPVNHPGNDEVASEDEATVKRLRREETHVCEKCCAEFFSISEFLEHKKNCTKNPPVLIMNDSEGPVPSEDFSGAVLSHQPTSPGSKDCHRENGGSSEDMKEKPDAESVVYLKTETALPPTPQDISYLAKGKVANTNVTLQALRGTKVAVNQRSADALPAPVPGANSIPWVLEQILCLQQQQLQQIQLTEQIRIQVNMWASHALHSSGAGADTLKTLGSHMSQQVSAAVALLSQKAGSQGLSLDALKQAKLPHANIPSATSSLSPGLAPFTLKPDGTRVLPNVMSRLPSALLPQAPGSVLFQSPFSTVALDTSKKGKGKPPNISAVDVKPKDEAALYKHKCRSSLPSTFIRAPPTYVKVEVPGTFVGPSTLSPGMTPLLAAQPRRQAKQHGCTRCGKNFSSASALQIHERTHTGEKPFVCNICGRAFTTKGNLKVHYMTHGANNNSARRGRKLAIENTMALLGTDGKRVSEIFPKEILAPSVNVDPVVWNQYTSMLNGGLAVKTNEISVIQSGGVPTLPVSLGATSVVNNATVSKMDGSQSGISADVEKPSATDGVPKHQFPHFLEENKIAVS
Sequence | E-score
GCTCACCA | -0.205
CCCTATAC | -0.0445
ATAAGCTC | 0.0386
CGTCACAG | -0.0638
AGCTGATC | -0.173
ATAGCTAC | 0.234
ATTCCAGA | 0.0887
CCGCAAGG | -0.225

Other studies, line by line
Substance | target | test | system | conditions | how to read | measurement | result
PhoQ, residues 284 288 289 292 302 303 SCCLKL | PhoP, residues 12 14 15 18 19 NMSFL (Escherichia coli, UniProt P23836) | Sort-seq, measured: YFP reporter | E. coli | PhoQ-PhoP variant library, with: 10 µM Mg2+ | reference: high Mg2+ state, higher = stronger signaling | fold induction | 7.51

Repeated from above (sample 2):
Sequence | normalised bound fraction [ratio]
CTGCAGCACTACAGCCCCTTTCTAGGACATCCCTGAAGGATGCAGTGAAGGGAAATCTTCCCAGTGGGCAGAACTTCCAGCAGTGCACCTGGTTGTGTACTTTGCATGGAAGGAGAAATAATCAAATGTGTGATTACATACTGATTCATGGGCTGCAGCCAATGGTTTGGCTGGATGGTCAGGGAGGTCATTC | 0.112
ATTATTTCATTATACAAATATAAATGTCATTCTTTGATTTTAGAAGAAATCATGATATGTCATTCTATTGAGTGCTAACTAAAAGTTCCCTTTGTTTACTTAGCTTTCTCTTAGTCATAAGAAAGAAGAAGATCTCTTGCGTGAAAACAGCATGTTGCGGGAAGAAATTGCCAAGCTAAGACTGGAACTAGAT | 0.541
